Published values collected from several papers.
A part holds a random share of what one study measured. “And” joins repeats or separate records; there may be more than shown.

Study 1
Compound: C[C@@H]1CN(c2ccc(-c3cc(C(=O)NCCOCCOCCOCCOCCNC(=O)/C=C/c4[nH]cc(C(=O)N[C@@H](CC(N)=O)c5ccc(F)c(Cl)c5)c4-c4ccc(Cl)cc4F)ccc3F)cc2NC(=O)c2c[nH]c(=O)cc2C(F)(F)F)C[C@H](C)N1C
Observed: thermal unfolding
Technique: differential scanning fluorimetry
Tested at: 5.5 µM
Reading: higher = more unfolded
DCAF1: DDB1- and CUL4-associated factor 1 (DCAF1, Homo sapiens, UniProt Q9Y4B6)
Chain of UniProt Q9Y4B6 (whole entry, looked up): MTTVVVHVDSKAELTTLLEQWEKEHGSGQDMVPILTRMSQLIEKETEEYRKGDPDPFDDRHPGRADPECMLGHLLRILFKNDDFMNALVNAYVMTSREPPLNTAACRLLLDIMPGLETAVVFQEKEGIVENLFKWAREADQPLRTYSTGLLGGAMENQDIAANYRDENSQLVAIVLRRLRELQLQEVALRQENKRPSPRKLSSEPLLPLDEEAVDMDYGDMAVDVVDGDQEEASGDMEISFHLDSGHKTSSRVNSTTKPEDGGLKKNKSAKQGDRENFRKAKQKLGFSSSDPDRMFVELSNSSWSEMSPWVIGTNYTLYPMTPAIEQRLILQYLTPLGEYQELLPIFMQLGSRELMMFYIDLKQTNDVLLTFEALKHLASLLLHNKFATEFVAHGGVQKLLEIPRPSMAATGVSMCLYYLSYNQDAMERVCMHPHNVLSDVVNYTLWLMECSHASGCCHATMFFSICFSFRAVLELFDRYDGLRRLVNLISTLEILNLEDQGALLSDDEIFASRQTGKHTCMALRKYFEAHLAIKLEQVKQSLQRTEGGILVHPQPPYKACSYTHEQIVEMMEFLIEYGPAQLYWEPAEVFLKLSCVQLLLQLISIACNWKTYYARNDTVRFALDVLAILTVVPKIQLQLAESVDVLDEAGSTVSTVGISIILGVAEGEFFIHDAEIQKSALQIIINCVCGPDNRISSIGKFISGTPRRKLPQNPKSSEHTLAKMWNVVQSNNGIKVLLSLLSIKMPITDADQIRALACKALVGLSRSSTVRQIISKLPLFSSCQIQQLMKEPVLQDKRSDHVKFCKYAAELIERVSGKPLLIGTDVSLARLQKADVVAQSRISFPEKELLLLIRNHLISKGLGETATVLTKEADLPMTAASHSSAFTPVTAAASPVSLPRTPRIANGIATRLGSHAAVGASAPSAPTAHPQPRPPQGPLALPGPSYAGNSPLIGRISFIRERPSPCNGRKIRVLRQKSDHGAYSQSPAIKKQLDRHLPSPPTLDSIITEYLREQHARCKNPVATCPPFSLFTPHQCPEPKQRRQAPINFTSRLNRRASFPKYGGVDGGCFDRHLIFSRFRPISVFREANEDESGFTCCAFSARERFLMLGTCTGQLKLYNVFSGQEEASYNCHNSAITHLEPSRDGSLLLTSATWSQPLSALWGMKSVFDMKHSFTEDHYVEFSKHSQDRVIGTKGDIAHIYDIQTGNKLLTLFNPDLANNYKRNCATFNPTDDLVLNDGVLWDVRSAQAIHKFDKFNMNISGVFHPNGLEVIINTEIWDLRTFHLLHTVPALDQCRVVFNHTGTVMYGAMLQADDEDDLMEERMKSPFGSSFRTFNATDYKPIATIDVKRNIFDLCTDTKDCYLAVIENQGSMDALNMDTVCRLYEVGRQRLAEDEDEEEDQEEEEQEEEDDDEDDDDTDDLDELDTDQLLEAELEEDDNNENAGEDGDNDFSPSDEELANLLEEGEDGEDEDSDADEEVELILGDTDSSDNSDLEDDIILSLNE
target	temperature	SYPRO Orange fluorescence [a.u.]
DCAF1	69.21 °C	56800
WD repeat-containing protein 5 (WDR5, Homo sapiens, UniProt P61964)	74.01 °C	23500
DCAF1	29.4 °C	9430

Further values, each from its own experiment
Substance	target or system	assay	test system	conditions	scale	endpoint	value
Cc1ncsc1-c1ccc(C(CO)NC(=O)C2CC(O)CN2C(=O)C(C(C)C)n2cc(-c3ccc(COc4c(-c5c(C)c(F)cc6[nH]ncc56)c(C5CC5)cc5c(N6CC7CC6CN7)nc(OC6CCOCC6)nc45)cc3)nn2)cc1 (stereo not drawn)	–	–	male Balb/c nu/nu mouse, PK-59 xenograft, pancreas	intravenous, 10 mg/kg, 2 h	–	concentration	358 ng/g and 190 ng/g and 525 ng/g
Cc1nc(C)c(C=[N+]([O-])C(C)(C)C)nc1C	–	Western blot	MPTP mouse model, substantia nigra cytosol	90 mg/kg, unit not given	relative to: β-actin	PGC-1α protein level	72.8 and 87.6 and 109 and 102
AGGGAGGGAGGGAGGGAAAAAAA (RNA; intramolecular G-quadruplex)	Fmr1 fragment (Mus musculus)	fluorescence polarization	folded RNA	KCl 150 mM	–	binding	binds

Excerpt of the above (study 1):
target	temperature	SYPRO Orange fluorescence [a.u.]
DCAF1	29.4 °C	9430
